Experimental data of several laboratories.
Lines come from different studies, so protocols differ. Values joined by “and” are separate records of one study, mostly repeats; a detail may differ. Numbers after ± are the reported error.

Amino acid sequences for entries named in this document (tags omitted). Residues count along the entry.
UniProt P14902, whole entry: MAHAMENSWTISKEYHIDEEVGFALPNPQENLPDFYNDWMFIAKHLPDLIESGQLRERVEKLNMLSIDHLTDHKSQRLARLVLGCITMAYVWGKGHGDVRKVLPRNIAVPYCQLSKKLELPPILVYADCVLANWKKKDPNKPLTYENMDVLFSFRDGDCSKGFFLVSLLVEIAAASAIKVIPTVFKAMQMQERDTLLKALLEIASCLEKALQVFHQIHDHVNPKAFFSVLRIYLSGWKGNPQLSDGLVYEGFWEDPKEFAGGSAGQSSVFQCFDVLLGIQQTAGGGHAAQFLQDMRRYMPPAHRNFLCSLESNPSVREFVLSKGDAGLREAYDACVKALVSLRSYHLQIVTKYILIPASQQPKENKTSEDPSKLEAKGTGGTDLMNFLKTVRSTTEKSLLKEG
UniProt O00311, whole entry: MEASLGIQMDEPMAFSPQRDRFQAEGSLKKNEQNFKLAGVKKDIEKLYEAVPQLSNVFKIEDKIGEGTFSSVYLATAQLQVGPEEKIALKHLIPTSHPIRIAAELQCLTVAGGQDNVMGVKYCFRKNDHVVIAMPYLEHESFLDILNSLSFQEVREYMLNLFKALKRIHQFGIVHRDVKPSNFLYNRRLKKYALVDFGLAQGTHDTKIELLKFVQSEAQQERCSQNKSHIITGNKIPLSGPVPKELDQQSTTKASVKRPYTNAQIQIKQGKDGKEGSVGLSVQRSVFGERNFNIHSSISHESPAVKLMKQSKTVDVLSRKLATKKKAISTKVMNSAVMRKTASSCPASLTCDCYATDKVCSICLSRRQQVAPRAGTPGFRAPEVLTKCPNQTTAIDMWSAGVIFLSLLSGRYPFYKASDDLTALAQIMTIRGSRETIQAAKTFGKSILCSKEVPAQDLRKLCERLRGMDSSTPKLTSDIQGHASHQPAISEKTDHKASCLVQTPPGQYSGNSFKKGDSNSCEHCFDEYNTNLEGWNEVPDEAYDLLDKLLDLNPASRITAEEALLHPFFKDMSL
UniProt P23219, 24-599 limits assumed: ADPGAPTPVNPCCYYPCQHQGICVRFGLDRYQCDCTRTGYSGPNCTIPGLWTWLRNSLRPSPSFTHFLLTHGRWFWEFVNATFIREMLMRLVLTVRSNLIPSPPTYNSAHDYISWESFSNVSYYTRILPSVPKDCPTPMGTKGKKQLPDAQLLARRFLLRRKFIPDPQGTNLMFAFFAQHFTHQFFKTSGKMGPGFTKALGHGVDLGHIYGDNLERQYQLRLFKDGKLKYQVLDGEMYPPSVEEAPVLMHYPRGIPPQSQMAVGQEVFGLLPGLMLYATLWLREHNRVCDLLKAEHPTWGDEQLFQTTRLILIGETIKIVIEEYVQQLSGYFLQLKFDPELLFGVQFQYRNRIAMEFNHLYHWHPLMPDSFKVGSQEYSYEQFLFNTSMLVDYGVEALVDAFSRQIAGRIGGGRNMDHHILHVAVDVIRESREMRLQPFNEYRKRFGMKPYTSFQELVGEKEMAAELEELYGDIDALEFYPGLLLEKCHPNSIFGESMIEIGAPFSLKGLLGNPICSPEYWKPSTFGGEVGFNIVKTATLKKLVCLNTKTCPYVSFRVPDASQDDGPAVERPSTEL
UniProt Q9UBN7, whole entry: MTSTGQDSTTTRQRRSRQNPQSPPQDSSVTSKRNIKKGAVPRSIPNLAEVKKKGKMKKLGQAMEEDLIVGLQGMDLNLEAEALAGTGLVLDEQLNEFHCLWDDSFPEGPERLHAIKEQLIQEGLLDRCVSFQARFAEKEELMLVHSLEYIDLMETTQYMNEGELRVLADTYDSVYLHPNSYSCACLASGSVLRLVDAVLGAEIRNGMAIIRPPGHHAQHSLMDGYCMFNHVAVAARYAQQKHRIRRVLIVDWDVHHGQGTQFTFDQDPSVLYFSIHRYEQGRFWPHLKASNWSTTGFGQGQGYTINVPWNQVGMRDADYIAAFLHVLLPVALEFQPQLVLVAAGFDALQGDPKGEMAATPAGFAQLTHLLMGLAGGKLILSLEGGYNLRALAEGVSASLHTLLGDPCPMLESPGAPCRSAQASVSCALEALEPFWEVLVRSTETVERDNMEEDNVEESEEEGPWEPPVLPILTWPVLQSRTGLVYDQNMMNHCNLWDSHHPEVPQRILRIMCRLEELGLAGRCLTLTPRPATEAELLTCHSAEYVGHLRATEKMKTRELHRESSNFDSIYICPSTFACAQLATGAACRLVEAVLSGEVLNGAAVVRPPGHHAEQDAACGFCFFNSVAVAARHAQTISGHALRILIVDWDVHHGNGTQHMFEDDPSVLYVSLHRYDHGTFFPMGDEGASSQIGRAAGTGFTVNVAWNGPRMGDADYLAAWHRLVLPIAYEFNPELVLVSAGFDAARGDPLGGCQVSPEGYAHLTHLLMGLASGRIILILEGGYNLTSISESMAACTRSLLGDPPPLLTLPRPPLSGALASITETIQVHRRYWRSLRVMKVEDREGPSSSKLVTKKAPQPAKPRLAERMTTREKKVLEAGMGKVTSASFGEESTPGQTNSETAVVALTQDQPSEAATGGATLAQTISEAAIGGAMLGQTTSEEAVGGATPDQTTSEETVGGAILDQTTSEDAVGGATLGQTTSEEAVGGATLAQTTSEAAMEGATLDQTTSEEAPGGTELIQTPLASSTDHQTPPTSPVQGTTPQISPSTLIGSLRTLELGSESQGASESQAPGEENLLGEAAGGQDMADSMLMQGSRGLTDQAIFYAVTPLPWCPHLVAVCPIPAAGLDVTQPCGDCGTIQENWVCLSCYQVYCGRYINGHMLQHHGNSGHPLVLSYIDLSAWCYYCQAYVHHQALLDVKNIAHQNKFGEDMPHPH
UniProt Q9NRM7, whole entry: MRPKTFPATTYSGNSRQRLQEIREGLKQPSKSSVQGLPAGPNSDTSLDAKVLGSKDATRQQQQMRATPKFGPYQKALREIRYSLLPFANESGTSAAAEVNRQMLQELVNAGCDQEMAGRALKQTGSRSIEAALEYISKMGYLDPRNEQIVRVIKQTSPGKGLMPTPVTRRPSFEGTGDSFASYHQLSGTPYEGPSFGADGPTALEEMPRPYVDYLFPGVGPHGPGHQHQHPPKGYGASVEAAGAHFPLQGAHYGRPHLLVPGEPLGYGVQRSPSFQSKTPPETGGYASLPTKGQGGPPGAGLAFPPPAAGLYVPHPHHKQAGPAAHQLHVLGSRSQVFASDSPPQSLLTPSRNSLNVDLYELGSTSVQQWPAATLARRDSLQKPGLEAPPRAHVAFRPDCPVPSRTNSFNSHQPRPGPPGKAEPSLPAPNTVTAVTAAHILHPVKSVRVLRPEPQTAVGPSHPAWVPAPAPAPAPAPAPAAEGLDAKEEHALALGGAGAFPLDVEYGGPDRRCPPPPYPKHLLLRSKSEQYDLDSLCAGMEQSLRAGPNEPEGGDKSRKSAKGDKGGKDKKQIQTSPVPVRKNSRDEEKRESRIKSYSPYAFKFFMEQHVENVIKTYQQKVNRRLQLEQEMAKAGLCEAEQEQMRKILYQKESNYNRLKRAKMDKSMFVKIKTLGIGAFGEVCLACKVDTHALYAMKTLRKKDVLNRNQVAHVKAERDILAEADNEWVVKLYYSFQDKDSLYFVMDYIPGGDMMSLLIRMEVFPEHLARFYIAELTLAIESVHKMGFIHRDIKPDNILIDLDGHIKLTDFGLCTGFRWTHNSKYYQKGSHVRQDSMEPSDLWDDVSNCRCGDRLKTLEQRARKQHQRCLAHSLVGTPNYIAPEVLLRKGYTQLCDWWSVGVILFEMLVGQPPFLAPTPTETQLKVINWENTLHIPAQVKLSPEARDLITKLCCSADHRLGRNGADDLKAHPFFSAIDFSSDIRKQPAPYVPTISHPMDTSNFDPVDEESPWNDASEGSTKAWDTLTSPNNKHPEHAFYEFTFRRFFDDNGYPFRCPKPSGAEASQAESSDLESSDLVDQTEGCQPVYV
UniProt P54764, 29-209 limits assumed: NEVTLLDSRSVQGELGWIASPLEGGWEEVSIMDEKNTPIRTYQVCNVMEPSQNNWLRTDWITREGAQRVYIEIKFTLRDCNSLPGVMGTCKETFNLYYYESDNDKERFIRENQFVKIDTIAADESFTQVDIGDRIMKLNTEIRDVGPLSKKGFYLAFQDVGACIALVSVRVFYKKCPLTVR
UniProt P33176, whole entry, looked up: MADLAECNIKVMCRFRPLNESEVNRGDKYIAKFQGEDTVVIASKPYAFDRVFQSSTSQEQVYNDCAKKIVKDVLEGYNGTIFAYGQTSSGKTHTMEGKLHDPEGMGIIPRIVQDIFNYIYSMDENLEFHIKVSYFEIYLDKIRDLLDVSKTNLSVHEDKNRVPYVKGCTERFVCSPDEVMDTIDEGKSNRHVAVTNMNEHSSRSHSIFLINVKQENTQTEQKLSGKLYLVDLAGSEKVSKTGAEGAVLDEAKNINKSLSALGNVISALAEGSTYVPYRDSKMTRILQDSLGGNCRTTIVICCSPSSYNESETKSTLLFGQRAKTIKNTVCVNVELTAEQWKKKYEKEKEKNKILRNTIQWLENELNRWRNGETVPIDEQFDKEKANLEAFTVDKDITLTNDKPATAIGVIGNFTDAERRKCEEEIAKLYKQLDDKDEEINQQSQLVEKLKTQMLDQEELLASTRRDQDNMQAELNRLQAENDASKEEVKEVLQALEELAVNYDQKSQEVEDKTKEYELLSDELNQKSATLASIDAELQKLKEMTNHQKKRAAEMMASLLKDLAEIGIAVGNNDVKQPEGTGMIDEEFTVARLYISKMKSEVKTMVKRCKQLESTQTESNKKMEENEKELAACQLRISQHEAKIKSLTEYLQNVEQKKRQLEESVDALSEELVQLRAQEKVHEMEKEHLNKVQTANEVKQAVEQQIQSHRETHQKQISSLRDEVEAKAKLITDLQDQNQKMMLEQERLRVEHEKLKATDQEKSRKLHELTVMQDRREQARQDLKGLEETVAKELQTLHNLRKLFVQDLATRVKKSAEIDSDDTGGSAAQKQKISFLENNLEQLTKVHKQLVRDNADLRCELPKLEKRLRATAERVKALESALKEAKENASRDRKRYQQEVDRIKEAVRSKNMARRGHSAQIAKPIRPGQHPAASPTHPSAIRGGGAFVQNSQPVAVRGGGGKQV
UniProt Q9BV23, whole entry: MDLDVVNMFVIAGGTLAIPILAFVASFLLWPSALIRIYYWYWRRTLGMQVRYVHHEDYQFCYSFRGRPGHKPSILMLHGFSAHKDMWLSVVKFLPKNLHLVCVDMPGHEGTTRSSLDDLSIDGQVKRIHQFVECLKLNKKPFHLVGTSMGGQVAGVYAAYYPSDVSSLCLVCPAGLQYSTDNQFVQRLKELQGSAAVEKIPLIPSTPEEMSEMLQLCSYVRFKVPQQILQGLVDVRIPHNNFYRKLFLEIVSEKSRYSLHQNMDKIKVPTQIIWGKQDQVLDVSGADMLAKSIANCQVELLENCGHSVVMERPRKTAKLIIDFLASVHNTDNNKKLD
UniProt Q8TF76, whole entry: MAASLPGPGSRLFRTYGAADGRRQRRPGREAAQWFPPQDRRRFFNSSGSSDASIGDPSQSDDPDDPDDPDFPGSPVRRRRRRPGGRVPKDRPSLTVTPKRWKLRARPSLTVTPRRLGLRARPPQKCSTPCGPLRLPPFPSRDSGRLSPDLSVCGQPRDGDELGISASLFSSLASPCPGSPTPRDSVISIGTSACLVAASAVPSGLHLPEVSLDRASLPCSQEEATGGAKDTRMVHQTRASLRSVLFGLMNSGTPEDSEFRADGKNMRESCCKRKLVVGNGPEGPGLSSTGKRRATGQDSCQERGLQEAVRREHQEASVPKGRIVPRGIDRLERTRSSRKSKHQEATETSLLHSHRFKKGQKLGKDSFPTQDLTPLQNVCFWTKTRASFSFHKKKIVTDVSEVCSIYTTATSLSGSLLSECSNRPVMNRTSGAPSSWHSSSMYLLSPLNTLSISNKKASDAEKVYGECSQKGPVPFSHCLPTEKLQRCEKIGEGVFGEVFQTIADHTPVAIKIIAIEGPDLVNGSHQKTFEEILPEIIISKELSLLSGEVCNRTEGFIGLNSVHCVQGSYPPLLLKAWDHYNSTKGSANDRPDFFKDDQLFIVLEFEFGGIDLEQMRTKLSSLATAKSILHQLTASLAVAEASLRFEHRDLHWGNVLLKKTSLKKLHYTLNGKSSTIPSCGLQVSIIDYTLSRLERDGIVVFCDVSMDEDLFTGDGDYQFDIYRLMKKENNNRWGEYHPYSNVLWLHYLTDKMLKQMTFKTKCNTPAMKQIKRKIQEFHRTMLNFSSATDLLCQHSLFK
UniProt P68400, whole entry: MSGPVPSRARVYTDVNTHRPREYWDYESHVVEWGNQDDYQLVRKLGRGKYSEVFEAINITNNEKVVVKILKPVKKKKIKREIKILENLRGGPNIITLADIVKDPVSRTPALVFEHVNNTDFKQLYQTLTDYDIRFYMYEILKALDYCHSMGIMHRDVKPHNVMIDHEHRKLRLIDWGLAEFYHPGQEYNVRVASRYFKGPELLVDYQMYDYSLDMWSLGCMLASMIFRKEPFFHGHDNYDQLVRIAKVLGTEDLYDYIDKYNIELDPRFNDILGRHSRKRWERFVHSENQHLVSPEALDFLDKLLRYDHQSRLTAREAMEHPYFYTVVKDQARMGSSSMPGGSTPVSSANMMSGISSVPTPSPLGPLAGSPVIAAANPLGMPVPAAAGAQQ

The IC50 of `COc1cccc(C(=O)Nc2ccc(-c3nc4ccc(NC(=O)c5cccc(OC)c5)cc4s3)cc2)c1` is reported as greater than 100000 nM (Moesin, with CD44 (Homo sapiens, UniProt P26038); MSN-CD44 interaction, inhibitor, TR-FRET; together with: CD44).
`Cc1ccc(S(=O)(=O)Oc2ccc(/C=C/c3c[nH]c4ccc(C#N)cc34)cc2)cc1` gave an IC50 of greater than 100000 nM (Indoleamine 2,3-dioxygenase 1 (IDO1, Homo sapiens, UniProt P14902); enzyme activity, inhibitor).
The IC50 of `CN1CC[C@H](c2c(O)cc(O)c3c(=O)cc(-c4ccccc4F)oc23)[C@H](O)C1` is reported as 350 nM (Cyclin-dependent kinase 2, part with cyclin A (CDK2, Homo sapiens, UniProt P24941); ATP at Km).
For `CC(=O)Nc1nc(C)c(-c2csc(Nc3ccc([N+](=O)[O-])cc3)n2)s1`, the IC50 was greater than 10000 nM (Protein-lysine 6-oxidase (Homo sapiens, UniProt P28300); LOX activity, inhibitor; MDA-MB-231).
For `C[C@H](N)c1nc2cc(-c3ccncc3F)sc2c(=O)[nH]1`, the IC50 was 155 ± 3.09 nM (Cell division cycle 7-related protein kinase (CDC7, Homo sapiens, UniProt O00311); enzyme activity, inhibitor).
`COc1ccc(-n2nc(C(F)(F)F)nc2-c2ccc(OC)nc2)cc1` gave an IC50 of 6 ± 3 nM (Prostaglandin G/H synthase 1 (PTGS1, Homo sapiens, UniProt P23219); thromboxane B2 production, inhibitor, enzyme immunoassay; human whole blood).
`O=C1Nc2cccc(C#CC3(O)CCNCC3)c2/C1=C/c1cc2ccccc2[nH]1` has an IC50 of 237 nM (Mitogen-activated protein kinase kinase kinase 3 (MAP3K3, Homo sapiens, UniProt Q99759); enzyme activity, TR-FRET).
`O=C(NO)c1c(F)cccc1F` gave an IC50 of 18900 nM (Protein deacetylase HDAC6 (HDAC6, Homo sapiens, UniProt Q9UBN7); enzyme activity, inhibitor, electrophoretic mobility shift; together with: FAM-RHKK(Ac)-NH2 1 µM).
`Fc1cnccc1-c1ccc(C2(c3ccc(Cl)cc3)CCNCC2)cc1` has an IC50 of 7 nM (Serine/threonine-protein kinase LATS2 (LATS2, Homo sapiens, UniProt Q9NRM7); kinase activity, inhibitor, radiometric HotSpot; together with: ATP 10 µM).
`NCCC(=O)N[C@@H](Cc1c[nH]c2ccc(O)cc12)C(=O)N[C@@H](Cc1ccc(Cl)cc1)C(=O)N[C@@H](Cc1ccncc1)C(=O)N[C@@H](Cc1c[nH]c2ccccc12)C(N)=O` has an IC50 of 21000 ± 4400 nM (Ephrin type-A receptor 4 (EPHA4, Homo sapiens, UniProt P54764); binding, fluorescence polarization; together with: FITC-KYL peptide 5 µM).
For `COc1ccc(N=Nc2c(S(=O)(=O)OC(C)C)cc3cc(Nc4nc(Cl)nc(Cl)n4)ccc3c2O)cc1`, the IC50 was 56700 ± 10900 nM (Protein arginine N-methyltransferase 1 (Prmt1, Rattus norvegicus, UniProt Q63009); histone methylation; together with: histone 4).
For `CCN(CC)C(=O)Oc1ccccc1C=C1Cc2cc(OC)c(OC)cc2C1=O`, the IC50 was 5.25 nM (Cocaine esterase (CES2, Homo sapiens, UniProt O00748); intracellular enzyme activity; HepG2; 1 h, together with: fluorogenic substrate 10 µM).
`COc1ccc(-c2cc(=O)c3c(OC)cc(OC)cc3o2)cc1` gave an IC50 of 37400 ± 1150 nM (Pde5a (Mus musculus, UniProt Q8CG03); enzyme activity, inhibitor).
The IC50 of `CN1CCN(Cc2ccc(NC(=O)c3cncc(C#Cc4c(N)ncc5ccc(F)cc45)c3)cc2C(F)(F)F)CC1` is reported as 6.4 ± 0.34 nM (Kinesin-1 heavy chain/ Tyrosine-protein kinase receptor RET (RET/KIF5B, Homo sapiens, UniProt P07949+P33176, G810D); cell viability, inhibitor, CellTiter-Glo; Ba/F3 KIF5B-RET G810D).
`O=C(Cc1ccccc1)N1CCN(S(=O)(=O)c2ccc3[nH]c(=O)oc3c2)CC1` has an IC50 of 11100 nM (Nucleotide triphosphate diphosphatase NUDT15 (NUDT15, Homo sapiens, UniProt Q9NV35); enzyme activity, inhibitor, malachite green; together with: dGTP).
`COc1ccc2c(c1)CN(C(=O)OC(C(F)(F)F)C(F)(F)F)C2` has an IC50 of 8 nM and 8.3 nM (Monoacylglycerol lipase ABHD6 (ABHD6, Homo sapiens, UniProt Q9BV23); inhibitor, fluorescence).
`COc1ccc2nc3ccc(OC)cc3c(CCCCN)c2c1` gave an IC50 of 25 nM (Serine/threonine-protein kinase haspin (HASPIN, Homo sapiens, UniProt Q8TF76); inhibitor, TR-FRET; inactive at 20 µM, together with: histone H3 peptide substrate).
With `CC(C)CNC(=O)CSc1nc2ccc(NC(=O)CSc3cccc(C(F)(F)F)c3)cc2s1` the IC50 was greater than 50000 nM (Estrogen receptor (ESR1, Homo sapiens, UniProt P03372); reporter gene, antagonist; HEC-1 transfected ERα luciferase reporter).
`CC(=O)Nc1cc(Nc2cc(NC3CC3)n3ncc(C#N)c3n2)ccc1N(C)Cc1ccccc1` gave an IC50 of 280 nM (Casein kinase II subunit alpha (CSNK2A1, Homo sapiens, UniProt P68400); target engagement, NanoBRET; HEK293).

Excerpt of the above:
For `CCN(CC)C(=O)Oc1ccccc1C=C1Cc2cc(OC)c(OC)cc2C1=O`, the IC50 was 5.25 nM (Cocaine esterase (CES2, Homo sapiens, UniProt O00748); intracellular enzyme activity; HepG2; 1 h, together with: fluorogenic substrate 10 µM).
`COc1ccc(-c2cc(=O)c3c(OC)cc(OC)cc3o2)cc1` gave an IC50 of 37400 ± 1150 nM (Pde5a (Mus musculus, UniProt Q8CG03); enzyme activity, inhibitor).
